Experimental data of several laboratories.
Each line is one published result; not all experiments were run side by side. Numbers after ± are the reported error.
FAAH: Fatty-acid amide hydrolase 1 (FAAH, Homo sapiens, UniProt O00519)
UniProt O00519, sequence (whole entry, looked up): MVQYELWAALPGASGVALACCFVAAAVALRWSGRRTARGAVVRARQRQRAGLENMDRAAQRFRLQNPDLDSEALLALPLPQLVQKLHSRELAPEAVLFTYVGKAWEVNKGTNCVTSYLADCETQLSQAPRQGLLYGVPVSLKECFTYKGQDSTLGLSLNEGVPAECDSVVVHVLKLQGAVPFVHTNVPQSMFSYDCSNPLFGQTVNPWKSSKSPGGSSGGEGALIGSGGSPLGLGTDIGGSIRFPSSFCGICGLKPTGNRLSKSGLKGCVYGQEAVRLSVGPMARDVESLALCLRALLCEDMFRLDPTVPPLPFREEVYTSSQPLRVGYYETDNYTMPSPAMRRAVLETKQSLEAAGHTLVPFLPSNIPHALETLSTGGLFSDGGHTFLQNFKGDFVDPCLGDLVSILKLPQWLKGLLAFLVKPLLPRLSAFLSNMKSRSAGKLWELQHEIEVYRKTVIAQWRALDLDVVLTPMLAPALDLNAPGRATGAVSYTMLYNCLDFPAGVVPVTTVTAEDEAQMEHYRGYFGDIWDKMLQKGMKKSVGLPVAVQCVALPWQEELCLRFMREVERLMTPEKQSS
PARP1: Poly [ADP-ribose] polymerase 1 (PARP1, Homo sapiens, UniProt P09874)
UniProt P09874, sequence (whole entry, looked up): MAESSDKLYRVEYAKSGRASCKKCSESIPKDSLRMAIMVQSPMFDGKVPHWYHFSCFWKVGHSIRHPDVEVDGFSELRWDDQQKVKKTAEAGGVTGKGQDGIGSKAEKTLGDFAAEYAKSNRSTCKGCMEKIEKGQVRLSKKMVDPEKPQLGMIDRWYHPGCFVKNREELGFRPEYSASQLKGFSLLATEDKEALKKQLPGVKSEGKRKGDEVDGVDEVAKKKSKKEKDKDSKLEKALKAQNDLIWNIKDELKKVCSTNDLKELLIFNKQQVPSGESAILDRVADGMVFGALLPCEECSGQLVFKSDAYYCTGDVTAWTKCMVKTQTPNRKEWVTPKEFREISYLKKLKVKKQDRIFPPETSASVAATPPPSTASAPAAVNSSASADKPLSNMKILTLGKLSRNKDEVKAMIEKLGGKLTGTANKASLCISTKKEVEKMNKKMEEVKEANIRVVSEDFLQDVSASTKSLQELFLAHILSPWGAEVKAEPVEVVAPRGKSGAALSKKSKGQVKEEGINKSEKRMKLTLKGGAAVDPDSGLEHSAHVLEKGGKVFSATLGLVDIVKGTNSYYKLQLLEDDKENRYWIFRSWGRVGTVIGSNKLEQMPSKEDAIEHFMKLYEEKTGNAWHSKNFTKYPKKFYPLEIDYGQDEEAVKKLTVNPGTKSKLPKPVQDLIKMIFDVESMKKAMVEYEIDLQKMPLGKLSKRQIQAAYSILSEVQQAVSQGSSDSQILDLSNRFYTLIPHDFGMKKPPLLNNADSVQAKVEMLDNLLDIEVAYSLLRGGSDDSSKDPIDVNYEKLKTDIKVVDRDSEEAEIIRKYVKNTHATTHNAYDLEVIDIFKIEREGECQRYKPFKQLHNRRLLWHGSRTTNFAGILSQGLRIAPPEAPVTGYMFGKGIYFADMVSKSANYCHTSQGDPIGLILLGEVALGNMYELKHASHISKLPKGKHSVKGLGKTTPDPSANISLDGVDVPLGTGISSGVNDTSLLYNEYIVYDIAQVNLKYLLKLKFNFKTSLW
UniProt P9WFX1, sequence (whole entry, looked up): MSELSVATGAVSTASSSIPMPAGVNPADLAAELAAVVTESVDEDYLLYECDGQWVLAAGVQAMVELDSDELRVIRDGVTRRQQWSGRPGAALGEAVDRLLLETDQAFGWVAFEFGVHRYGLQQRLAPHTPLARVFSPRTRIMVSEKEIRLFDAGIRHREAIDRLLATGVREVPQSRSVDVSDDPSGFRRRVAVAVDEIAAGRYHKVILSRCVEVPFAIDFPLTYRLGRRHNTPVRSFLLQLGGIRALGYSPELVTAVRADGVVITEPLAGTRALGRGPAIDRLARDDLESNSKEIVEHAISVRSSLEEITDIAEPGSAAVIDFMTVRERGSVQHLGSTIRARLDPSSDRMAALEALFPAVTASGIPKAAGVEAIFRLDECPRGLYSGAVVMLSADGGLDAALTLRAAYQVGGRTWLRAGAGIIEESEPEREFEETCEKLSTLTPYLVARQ
UniProt P61073, sequence (whole entry, looked up): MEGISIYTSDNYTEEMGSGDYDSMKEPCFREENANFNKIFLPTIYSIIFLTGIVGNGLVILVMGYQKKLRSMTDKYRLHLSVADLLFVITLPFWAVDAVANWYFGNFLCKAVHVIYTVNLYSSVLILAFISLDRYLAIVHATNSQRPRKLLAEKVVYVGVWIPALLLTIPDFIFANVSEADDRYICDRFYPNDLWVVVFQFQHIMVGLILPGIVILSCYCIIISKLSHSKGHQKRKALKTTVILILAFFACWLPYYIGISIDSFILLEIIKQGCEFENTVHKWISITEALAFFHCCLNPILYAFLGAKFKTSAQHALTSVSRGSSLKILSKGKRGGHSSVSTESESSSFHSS
UniProt Q7RTX7, sequence (whole entry, looked up): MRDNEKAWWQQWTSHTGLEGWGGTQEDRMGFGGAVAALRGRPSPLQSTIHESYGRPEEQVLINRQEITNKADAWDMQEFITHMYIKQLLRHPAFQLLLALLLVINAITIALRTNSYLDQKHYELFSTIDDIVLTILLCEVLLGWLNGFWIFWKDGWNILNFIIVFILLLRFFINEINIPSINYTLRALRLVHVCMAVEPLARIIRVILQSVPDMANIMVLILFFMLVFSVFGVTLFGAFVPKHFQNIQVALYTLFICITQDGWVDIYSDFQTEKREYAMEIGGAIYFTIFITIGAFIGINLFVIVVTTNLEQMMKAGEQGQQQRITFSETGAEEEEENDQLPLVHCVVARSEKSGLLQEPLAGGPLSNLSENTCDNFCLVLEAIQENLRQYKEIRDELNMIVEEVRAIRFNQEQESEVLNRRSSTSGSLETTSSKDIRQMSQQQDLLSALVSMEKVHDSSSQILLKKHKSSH
UniProt P27694, sequence (whole entry, looked up): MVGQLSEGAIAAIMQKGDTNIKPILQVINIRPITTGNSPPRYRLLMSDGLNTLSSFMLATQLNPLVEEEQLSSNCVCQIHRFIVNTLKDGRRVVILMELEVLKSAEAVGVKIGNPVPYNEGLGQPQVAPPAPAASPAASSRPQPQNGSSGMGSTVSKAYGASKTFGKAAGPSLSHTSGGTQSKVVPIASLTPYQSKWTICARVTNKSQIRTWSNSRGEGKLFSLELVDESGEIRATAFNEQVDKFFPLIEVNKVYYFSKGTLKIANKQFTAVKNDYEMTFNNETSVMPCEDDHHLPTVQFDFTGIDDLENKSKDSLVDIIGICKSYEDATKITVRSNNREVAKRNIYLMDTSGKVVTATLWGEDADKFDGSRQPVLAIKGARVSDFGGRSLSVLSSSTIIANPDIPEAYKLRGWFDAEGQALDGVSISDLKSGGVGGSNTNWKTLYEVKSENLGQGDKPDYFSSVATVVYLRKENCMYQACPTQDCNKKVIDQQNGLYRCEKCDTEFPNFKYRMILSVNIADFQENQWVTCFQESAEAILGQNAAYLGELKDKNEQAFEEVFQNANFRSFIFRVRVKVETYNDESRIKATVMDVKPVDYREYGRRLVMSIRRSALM
UniProt Q8NEC5, sequence (whole entry, looked up): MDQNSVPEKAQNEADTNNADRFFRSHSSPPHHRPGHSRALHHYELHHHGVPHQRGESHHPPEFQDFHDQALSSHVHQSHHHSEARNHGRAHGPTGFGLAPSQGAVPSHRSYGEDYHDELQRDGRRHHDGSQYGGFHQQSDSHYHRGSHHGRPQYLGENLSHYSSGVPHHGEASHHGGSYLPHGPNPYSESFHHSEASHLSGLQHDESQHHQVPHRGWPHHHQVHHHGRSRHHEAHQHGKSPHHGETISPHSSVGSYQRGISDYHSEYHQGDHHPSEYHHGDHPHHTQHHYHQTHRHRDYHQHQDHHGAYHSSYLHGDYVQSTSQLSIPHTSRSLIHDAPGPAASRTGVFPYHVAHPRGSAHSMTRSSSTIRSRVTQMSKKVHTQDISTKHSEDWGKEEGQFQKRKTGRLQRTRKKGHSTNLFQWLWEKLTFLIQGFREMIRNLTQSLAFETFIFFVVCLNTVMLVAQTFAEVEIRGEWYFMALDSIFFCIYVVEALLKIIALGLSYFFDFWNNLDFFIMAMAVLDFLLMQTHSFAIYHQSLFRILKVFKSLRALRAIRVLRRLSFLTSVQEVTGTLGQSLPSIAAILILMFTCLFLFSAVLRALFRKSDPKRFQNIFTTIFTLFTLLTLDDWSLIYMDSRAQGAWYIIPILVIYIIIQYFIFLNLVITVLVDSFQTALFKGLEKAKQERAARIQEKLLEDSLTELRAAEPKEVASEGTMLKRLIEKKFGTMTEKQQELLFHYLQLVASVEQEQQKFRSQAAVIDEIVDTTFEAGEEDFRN
UniProt Q86XQ3, sequence (whole entry, looked up): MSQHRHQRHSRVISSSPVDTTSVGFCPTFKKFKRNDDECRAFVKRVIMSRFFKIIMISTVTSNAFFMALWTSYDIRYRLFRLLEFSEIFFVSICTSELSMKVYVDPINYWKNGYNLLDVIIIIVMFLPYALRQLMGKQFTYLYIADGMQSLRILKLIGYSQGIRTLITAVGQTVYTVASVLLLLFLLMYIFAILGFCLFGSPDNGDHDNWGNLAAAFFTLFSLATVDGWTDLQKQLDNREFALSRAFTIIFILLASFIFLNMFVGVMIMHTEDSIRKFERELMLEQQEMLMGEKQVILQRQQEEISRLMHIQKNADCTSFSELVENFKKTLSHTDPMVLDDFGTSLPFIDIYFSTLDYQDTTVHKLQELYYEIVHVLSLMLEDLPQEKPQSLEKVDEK
UniProt P07195, sequence (whole entry, looked up): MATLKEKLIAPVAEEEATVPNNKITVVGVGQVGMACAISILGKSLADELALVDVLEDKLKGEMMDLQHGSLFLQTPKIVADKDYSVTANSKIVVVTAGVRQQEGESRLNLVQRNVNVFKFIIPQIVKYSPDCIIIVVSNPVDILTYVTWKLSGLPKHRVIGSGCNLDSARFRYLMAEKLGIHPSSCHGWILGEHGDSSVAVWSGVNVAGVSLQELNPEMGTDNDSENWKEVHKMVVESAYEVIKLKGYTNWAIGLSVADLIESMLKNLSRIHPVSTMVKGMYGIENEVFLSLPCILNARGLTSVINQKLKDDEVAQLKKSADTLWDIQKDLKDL

CC[C@H](C(=O)O)[C@H]1CCN[C@@H]1C(=O)O — IC50 (AMPA receptor, rat; binding; cortical synaptosomes; with: [3H]-AMPA): > 100000 nM
Cn1c(=O)c(=O)n(C)c2cc(S(=O)(=O)Nc3ccc(F)cc3)ccc21 — IC50 (DPP4 (Homo sapiens, UniProt P27487); enzyme activity, inhibitor, fluorescence): 0.7 nM
O=c1c(-c2cc(O)c(O)c(O)c2)coc2cc(O)c(O)c(O)c12 — IC50 (Cell division cycle 7-related protein kinase, with DBF4 (CDC7, Homo sapiens, UniProt O00311); enzyme activity, inhibitor, ADP-Glo luminescence; with: ATP 12.5 µM): 1150 ± 70 nM
O=C(OCC1CCCCC1)c1ccc(O)cc1 — IC50 (FAAH; enzyme activity, inhibitor, fluorescence; with preincubation): 360 nM
CN(C)C/C=C/C(=O)Nc1cccc(S(=O)(=O)N2CCC(NC(=O)c3n[nH]cc3NC(=O)c3c(Cl)cc(Cl)cc3Cl)CC2)c1 — IC50 (CDK2 (Homo sapiens, UniProt P24941); target engagement in cells, BRET): 256 nM
NC(=O)c1cccc2c1OCC(=O)N2 — IC50 (PARP1): 750 ± 90 nM
Cc1ccc(-c2nn(-c3ccccc3)cc2C2CC(c3ccc(Br)cc3)=NN2C(=O)CCC(=O)O)cc1 (stereo not shown) — IC50 (RPA1 (Homo sapiens, UniProt P27694); protein-nucleic acid interaction, inhibitor, mobility shift): 56100 nM
COc1cccc2cc(-c3nnc(SCC(=O)Nc4cc([N+](=O)[O-])ccc4C)n3-c3ccccc3)oc12 — IC50 (fungal tyrosinase; enzyme activity, inhibitor, dopachrome absorbance; pH 6.8, 37 °C, with: L-tyrosine substrate): 1530 ± 2300 nM
C[C@]12CCC(=O)C=C1CC[C@@H]1[C@@H]2[C@@H](O)C[C@]2(C=O)[C@@H](C(=O)CO)CC[C@@H]12 — IC50 (CatSper channel complex (Homo sapiens, UniProt Q7RTX7+Q86XQ3+Q8NEC5+Q96P56); calcium influx, inhibitor; human sperm; pH 8.2, with: 140 mM K+): > 10000 nM
CC(=O)c1ccc(NC(=O)CSc2nc3ccccc3c(=O)n2-c2ccccc2)cc1 — IC50 (PARP1; enzyme activity, inhibitor, absorbance): 216 nM
O=C1NC(=O)c2cc(Nc3ccc(F)cc3)c(Nc3ccc(F)cc3)cc21 — IC50 (PSMB5 (Homo sapiens, UniProt P28074); enzyme activity; with: Suc-LLVY-AMC substrate, ATP): > 30000 nM
COc1cc2nc(NCc3ccc(CNCCCN4CCCCC4)cc3)nc(NC3CCNCC3)c2cc1OC — IC50 (CXCR4 (Homo sapiens, UniProt P61073); ligand displacement, radioligand; cell membranes): 87.8 nM
COc1ccc(-c2cc(=O)c3c(OC)c([C@@H]4O[C@H](C(=O)NC56CC7CC(CC(C7)C5)C6)[C@@H](O)[C@H](O)[C@H]4O)c(OC)cc3o2)cc1OC — IC50 (GSK3B (Homo sapiens, UniProt P49841); enzyme activity, inhibitor, ADP detection): 33500 nM
COC(=O)C(Cc1ccc(CCCC(=O)NCCC(=O)Nc2ccc3nc(C)sc3c2)cc1)C(=O)OC — IC50 (LDHB (Homo sapiens, UniProt P07195); enzyme activity, inhibitor, fluorescence): > 200000 nM
COc1cccc(Cn2cc(CNC(=O)OCc3cn(Cc4cccc(OC)c4)nn3)nn2)c1 — IC50 (FAAH; enzyme activity, inhibitor, fluorescence; cell membranes): 4.2 nM
O=C(NCc1ccc(F)cc1)C1CCN(S(=O)(=O)c2cc(Cl)cc(Cl)c2)CC1 — IC50 (Na(+)/citrate cotransporter (Homo sapiens, UniProt Q86YT5); citrate uptake, inhibitor; HepG2; 30 min preincubation, washout before uptake, with: Li+): 82 ± 10 nM
COC(=O)C1=C(C)NC(C)=C(C(=O)OCCN(C)Cc2ccccc2)C1c1cccc([N+](=O)[O-])c1 (stereo not shown) — IC50 (ABCC1 (Homo sapiens, UniProt P33527); substrate efflux, inhibitor, flow cytometry; ABCC1-overexpressing SupT1-Vin cells; with: BODIPY-FL-thapsigargin 100 nM): 600 nM
Cc1onc(-c2ccccc2)c1C(=O)N[C@@H]1C(=O)N2[C@@H]1SC(C)(C)[C@@H]2C(=O)O — IC50 (mecA (Staphylococcus aureus, UniProt A0A0H2WXF8)): 847000 nM
CC(=O)n1cnc2ccccc21 — IC50 (mbtI (Mycobacterium tuberculosis, UniProt P9WFX1); enzyme activity, inhibitor, continuous fluorescence; with: chorismate): > 200000 nM
